{"data": "Results gathered from unrelated publications", "note": "A part holds a random share of what one study measured."}
{"data": "Series 1", "target": "Hepatocyte nuclear factor 3-alpha (Foxa1, Mus musculus, UniProt P35582, residues 1-468, full length assumed)", "method": "EMSA with sequencing", "molecule type": "double-stranded DNA, one strand shown", "medium": "in vitro", "tested at": "10 and 20 nM", "notes": "whole designed probe, mean of two concentrations, ends assumed", "reference": "negative control set to 0", "reading": "higher = stronger binding", "shared flanks, not repeated": "GTGAGCGGTGCCCATTGATGGGGAAC … TTTCACTGGGATCGTGGGGAC", "sequence of UniProt P35582 (whole entry, looked up)": "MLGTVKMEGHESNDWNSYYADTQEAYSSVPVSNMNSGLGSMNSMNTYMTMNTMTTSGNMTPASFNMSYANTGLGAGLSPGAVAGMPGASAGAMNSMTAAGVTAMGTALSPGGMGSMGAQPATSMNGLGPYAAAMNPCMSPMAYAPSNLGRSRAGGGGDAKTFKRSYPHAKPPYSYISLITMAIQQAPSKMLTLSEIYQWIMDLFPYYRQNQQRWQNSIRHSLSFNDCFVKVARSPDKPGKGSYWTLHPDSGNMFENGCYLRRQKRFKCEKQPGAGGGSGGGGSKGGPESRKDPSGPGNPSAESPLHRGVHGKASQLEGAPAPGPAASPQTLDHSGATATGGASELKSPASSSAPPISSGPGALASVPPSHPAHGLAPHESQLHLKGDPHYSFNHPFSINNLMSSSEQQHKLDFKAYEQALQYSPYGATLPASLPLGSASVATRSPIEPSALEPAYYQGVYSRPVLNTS"}
{"Sequence": "ATCTTCCCCCTCTTCCTTGCCCCACCAGCTCACCTTCCCGGGTATATTGGAGATAGGAAATTAATATAAGCCGGCATTCGTTAACCCTCTTCTGGCGCAAACTGCCAAAGTAAACAGATGAATCATGGTCCTTTGGCGACGCCAGGCTCCGGGAGAGCAAAGCACCGTGTCAGGGCCATGATCCGGGGTGGCC", "normalised bound fraction [ratio]": 0.397}
{"Sequence": "TCCTTTATCCCAACATGTTTATACAGACAAAACCAGGTTAAAATCGACACAAGGTCAACTTGAAATGGGGAGACGTCAAAGAGGAAGGTCAAAATAAACATGAAGTCTTGTGTACAAGCATCTGCAGAAGAGTTCAGCCTCACCACTTGGGTAATGCTGTTGGAATGTGGTCTGGGTTCACTGTATTTGAATG", "normalised bound fraction [ratio]": 0.257}
{"Sequence": "AAAGATGGCATGTTGTGATTATAAACCACAGAAGAAATCTCTAATTAGTCATCCTTCTCTGAAAAATTCATTAATACTGATTAAGCCTGCAGAGTCATCTGTGGAATTCTAGTCAAGCAGAACATTTATGGAGTGGCTTTGAAGGAGCTATGAATCGATTGTTCCCAGAAGAGCAGGTCTACCCTCCCAAGAA", "normalised bound fraction [ratio]": -0.0671}
{"Sequence": "TAAAGTTTTGATTTTTAAAATGATTCCAATGCTTCTGACATAAAAAAATCTGTTGCTGAAATACTTGAATACTATAATATATTAAATGATCTAAGTAAACATAGGACTACAGAAAAAAGAATATGAGAAAAGGATCAAAAGGAAGTAACTGATAAAAGTCAAGGAGAAATCAAAATTTAAATAAAAGAAATGG", "normalised bound fraction [ratio]": 0.481}
{"Sequence": "TCGGCCAGCCTGGCTTCTGCGCCCCGCCAGGAGGTCGCGGAGCGGAGCGCGGCCAGGAAGTGAGCTGAGAGTGACAGCTCCCCCCACGCTGTTTGTTTATTCATGTCACATTCTCTCCACACACTGGCTCTTCTTTCTTTCGGGAGGAGGGGAGAAAGGAGCGGGAGGGCGGGCGGGCAGGGGAGAGGCAGGC", "normalised bound fraction [ratio]": 0.382}
{"Sequence": "TTAAGTGAAATCAACTGAAACCTTACTTTTTTTTGCTTTTATACCTAAAATAGAGGATTTAGATATATTTTCTAGGAACGATGATGTAATATGTAATCTAGGAATTTTGGTAATGTTTGAAATATTTTCTCATGGGGACACACCACTAAATTTGTCACCTCTAAAACAGTACTTAGGTTAAATGCTTTTTAAA", "normalised bound fraction [ratio]": -0.00975}
{"Sequence": "TTACCGAAGATAGGAATTTCTTGCTTTTATTAAAACTGACCCAAATGTAATCCAATCAGGATTGCAAGATGTTATATTTGACCTATAAATATAAGTAATCTTGGCTCTCTTTATCTGGGAGCCATTTGTTGTGAAGGCAGAATTCCTTCATATATGTTTTACTGTTGCAGATAAAACTCAGTATTAAAAAAAT", "normalised bound fraction [ratio]": 0.0668}
{"Sequence": "TCTACACCAATGTCACACTGCCAAATCTCAAAGAAGATTTGGTTGTCACCACTTAAATCCCCTCATGAATGTTCTGGAAAAACTCCCTGCCCTAGATGACATAGCCTCTCTGCATAAAACTCCTATCATATTCCCACTCCTAAATGTCTCCAAAGCCAACTTTGTCACTTACTGATTAATACCTACCATCTCC", "normalised bound fraction [ratio]": -0.0822}
{"data": "Series 2", "target": "RNA binding protein fox-1 homolog 2, RRM domain, GST-SBP tag (RBFOX2, Homo sapiens, UniProt O43251-10, residues 100-194)", "method": "RNA Bind-n-Seq", "molecule type": "RNA", "medium": "in vitro", "tested at": "365 nM", "notes": "natural RNA segment, single round, ends assumed", "reference": "no-protein control", "reading": "higher = stronger binding", "shared flanks, not repeated": "GGGAGUUCUACAGUCCGACGAUC … UGGAAUUCUCGGGUGCCAA", "Target sequence (chain)": "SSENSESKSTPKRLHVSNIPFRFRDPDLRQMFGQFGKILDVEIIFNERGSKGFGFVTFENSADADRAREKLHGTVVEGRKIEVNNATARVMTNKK"}
{"Sequence": "UGCAAGUUUUAGAUCCAAUCUGCCUCAACAGUCAAUCAGUGUUCAUAUUUAUGGCCAGGCAUUCUAUCUGUUAGACAAUCGAGUUGGGGGUAGGGCAGCCUAGCUCUUUU", "RBNS enrichment (R)": 2.39}
{"Sequence": "CAAGCUAACACUGAAAAAAAAAAUGACAAAUUAAUGUGUCCUAUUAUCCAGGCUACAUCAGGAGGUUGGACUUCAAUGCAGUGCAUUUCUAGAAACAGUUUGGUAAACAU", "RBNS enrichment (R)": 0.474}
{"Sequence": "UUUGUAUGCGUUUGCUAAUGGUAGCUAAAUAACCAGUUUUUGUUGUAAAUGCACCAAUUCUGAAGGCACUUUAUGUACUACAUGGAGGUCAUAUCUGGUUUUGUUUUUAU", "RBNS enrichment (R)": 0.634}
{"Sequence": "ACCAGCCUGCAGGUCUCUGAGCUAUAGCUUGACUUGGGAGUCUUGAUUCCCACAGAAAACGUCCUAAGACUUCUAGUCGUCAAGAAGACCUGAAGCAUCCUUGACCUUCA", "RBNS enrichment (R)": 0.377}
{"Sequence": "CAUUGCAUAUCAAUCAGUUAAUACACUUAAUGUUGCAUGAGUGAUAUUUUGGUCUGGGUUUCCUCUUAAGAUUUUAGUUUGUCUGAAUUAAGGAAAAAUGUUUUUAAUAU", "RBNS enrichment (R)": 1.36}
{"Sequence": "AAGUGUACUUAUAUGUAAUCCUUAAAUUUUAAACUAGCUUGUGAUUUUUAAAUAUUUCUAAACUUUUCUUAAACCACUAAAAUUAAGCUCUUACUACUUAGUCAACUAUC", "RBNS enrichment (R)": 0.482}
{"Sequence": "UUGUUAUAAUUCUCAACCAGAAAUUUAAUACUUUCUAAAAUAUUUUUUAAAUUUAGCUUGUGCUUUUGAAUUACAGGAGAAGGGAAUCAUAAUUUAAUAAAACGCUUACU", "RBNS enrichment (R)": 0.927}
{"Sequence": "AUAGCUGUUCUGUCUCCUGGAGACCAAAGCUGGCUUGGAGGAAAAAAUGAUGCCCACAGUCUUGGGAAAAAUACCUGCUGGGAAGGAUGGCAUCUUUUCUGCGCGGUGGG", "RBNS enrichment (R)": 0.647}
{"Sequence": "AGGCAUUUUACAAAUUAUUUUUCAAGCAGUCAUUCUUGAUUGUUUGACUUUUUUUUUUAAAUUAAAGAUUGGGAAUGUAUGUGAGAGUAUGCAUAUGUAUGGGUGUGUGU", "RBNS enrichment (R)": 0.686}
{"Sequence": "CGUUACCUAAGCUAGCGUGGGCUUCCAGUUGCCUUAAUAGAAGUACUCAAGUCUCUUGGGUAGAGAUCUGGAAGCCUGCAGGAGAGGAGGGGUACUUGUUUUCAUUGGAA", "RBNS enrichment (R)": 0.526}
{"Sequence": "AAAAUUUCUUUUCUCCACCAUGCUUUAUGUGAUAGUAUUUAAAAUUGAUGUGAGUUAUUAUGUCAAAAAAACUGAUCUAUUAAAGAAGUAAUUGGCCUUUCUGAGCUGAU", "RBNS enrichment (R)": 0.337}
{"Sequence": "AUUAGUGAUUUGGAAAGUUAACAGUAAGAAGACUAACUUUUCAAAACAGUUGCAUCUGUAGAUUAAGAUGCUUUACAUUAGACCGUUGUGUCUCGAUGUAUAUCUGUAUA", "RBNS enrichment (R)": 0.363}
{"data": "Series 3", "target": "Histone acetyltransferase KAT6A, winged helix 2, GST fusion (KAT6A, Homo sapiens, UniProt Q92794, residues 85-181)", "method": "protein binding microarray", "molecule type": "double-stranded DNA, one strand shown", "medium": "in vitro", "tested at": "not given", "notes": "8-mer, flanks averaged, mean of 2 arrays, mostly near background", "reference": "not given", "reading": "higher = stronger binding", "Target sequence (chain)": "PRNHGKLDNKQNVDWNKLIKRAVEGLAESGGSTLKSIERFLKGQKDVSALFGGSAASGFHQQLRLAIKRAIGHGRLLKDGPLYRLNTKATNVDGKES"}
{"Sequence": "GGCTATCA", "E-score": 0.0707}
{"Sequence": "GCTGTATA", "E-score": 0.0351}
{"Sequence": "CAGGATAG", "E-score": 0.0127}
{"Sequence": "GAAGTAAC", "E-score": -0.162}
{"Sequence": "GAAGAAAA", "E-score": 0.0887}
{"Sequence": "GAAAGGGC", "E-score": 0.109}
{"Sequence": "ACAACTTG", "E-score": -0.0852}
{"Sequence": "ATGGCTCC", "E-score": 0.0415}
{"Sequence": "GACCAATC", "E-score": -0.0908}
{"Sequence": "GCCTTTTA", "E-score": -0.156}
{"Sequence": "AACGCCAT", "E-score": -0.131}
{"Sequence": "GCCTTACA", "E-score": -0.181}
{"Sequence": "AGGTAACT", "E-score": -0.0296}
{"Sequence": "AGCGTATC", "E-score": -0.0467}
{"Sequence": "AGAGTTGG", "E-score": -0.122}
{"Sequence": "CGGATAAG", "E-score": -0.0133}
{"Sequence": "ACCGGAGG", "E-score": 0.0135}
{"Sequence": "CTCAAGGC", "E-score": 0.0916}
{"Sequence": "GATTGTGC", "E-score": -0.00754}
{"Sequence": "AGAAAGAT", "E-score": -0.0324}
{"Sequence": "ATGAGCCC", "E-score": -0.0374}
{"Sequence": "CATCCCGC", "E-score": 0.0746}
{"Sequence": "ACGCCGTG", "E-score": 0.116}
{"Sequence": "TATTCTGA", "E-score": -0.196}
{"Sequence": "CCTGCATC", "E-score": 0.165}
{"data": "Series 4", "target": "Interferon regulatory factor 5, full length, phosphomimetic (IRF5, Homo sapiens, UniProt Q13568-2, residues 1-514, S451D/S453D/S456D/S462D)", "method": "protein-binding microarray", "molecule type": "double-stranded DNA, one strand shown", "medium": "in vitro", "tested at": "940 nM top", "notes": "60-bp whole probe", "with": "salmon DNA 0.4 mg/ml", "reference": "random background probes", "reading": "higher = stronger binding", "shared flanks, not repeated": "GCCTAGCAC … GTCTTGATTCGCTTGACGCTGCTG"}
{"Sequence": "GACGGTTTCCTACTGCGGACGTGCTAG", "fitted relative affinity [z-score]": 0.778}
{"Sequence": "TTAGGACTGGACACTGGGGTAGTGCTA", "fitted relative affinity [z-score]": -0.381}
{"Sequence": "GACGAACTGAGTTTCGAGAAGTGCTAG", "fitted relative affinity [z-score]": 3.19}
{"Sequence": "TTAGGTTTCCTGTCCCTTTAGTGCTAG", "fitted relative affinity [z-score]": 1.23}
{"Sequence": "GACGATTTCAGTATCGATACGTGCTAG", "fitted relative affinity [z-score]": 6.3}
{"Sequence": "TCAATTTTCTGAATGCTACTGTGCTAG", "fitted relative affinity [z-score]": 0.429}
{"Sequence": "GATGGTATTTGCCTGTGGTCGTGCTAG", "fitted relative affinity [z-score]": 0.117}
{"Sequence": "GACGATATCAGAATCGAGACGTGCTAG", "fitted relative affinity [z-score]": -0.361}
{"Sequence": "GACGATTTCAGTTCCGCGACGTGCTAG", "fitted relative affinity [z-score]": 0.651}
{"Sequence": "ATTTTTTTTTTCATCATTGCGTGCTAG", "fitted relative affinity [z-score]": 1.48}
{"Sequence": "CTCACCCAGTCCAGACACCCGTGCTAG", "fitted relative affinity [z-score]": 0.217}
{"Sequence": "GACGATTTCAGTTCCGATACGTGCTAG", "fitted relative affinity [z-score]": 1.76}
{"Sequence": "TTAGGACTGCTTTTCCTATAGTGCTAG", "fitted relative affinity [z-score]": -0.00132}
{"Sequence": "TTAAATTTCGGGTATCGATTAGTGCTA", "fitted relative affinity [z-score]": 3.69}
{"Sequence": "TCATTTTTTTTAATTGAACTGTGCTAG", "fitted relative affinity [z-score]": 0.844}
{"Sequence": "GATGGTTTCGGTCTCGGGACGTGCTAG", "fitted relative affinity [z-score]": 14.6}
{"Sequence": "GACGATATCAGTCTCAAGACGTGCTAG", "fitted relative affinity [z-score]": 0.135}
{"Sequence": "GACGATTTCAGACTGGAGGCGTGCTAG", "fitted relative affinity [z-score]": -0.546}
{"Sequence": "TTAGATATCACTCTCGATTAGTGCTAG", "fitted relative affinity [z-score]": 3.34}
{"Sequence": "GACGAACTGGGGACTTGAGACGTGCTA", "fitted relative affinity [z-score]": 0.0808}
